# Measured values pooled from the literature.
# Each numbered part is a random draw from the data of one study; scales do not carry over between parts.

# Series 1
# Target: RING finger protein unkempt homolog, zinc fingers 1-6, GST-SBP tag (UNK, Homo sapiens, UniProt Q9C0B0, residues 30-357)
# Technique: RNA Bind-n-Seq
# Molecule type: RNA
# Sample: in vitro
# Concentration: not given
# Setting: RNA with constant flanks, human and mouse sites, ends assumed
# Baseline: input RNA pool
# Direction: higher = stronger binding
# Shared flanks, not repeated: GGGAGUUCUACAGUCCGACGAUC … CAACAGAGGAUUGAGCAUCA
# Construct (chain): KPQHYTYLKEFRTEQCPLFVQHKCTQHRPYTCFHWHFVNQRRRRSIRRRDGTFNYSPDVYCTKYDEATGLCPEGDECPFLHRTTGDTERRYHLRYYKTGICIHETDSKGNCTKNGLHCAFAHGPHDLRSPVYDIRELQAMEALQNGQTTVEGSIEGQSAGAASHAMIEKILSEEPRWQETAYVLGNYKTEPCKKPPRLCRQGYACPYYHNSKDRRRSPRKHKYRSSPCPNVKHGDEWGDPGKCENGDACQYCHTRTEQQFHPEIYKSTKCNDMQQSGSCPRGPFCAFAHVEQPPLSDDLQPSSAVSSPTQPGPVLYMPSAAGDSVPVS
Oligonucleotide,bound/input enrichment [ratio]
AAAAUAAUUAAAAACCCAAUGGACUUGUCAACCAUCAAGAAAAGACUUCAGGAGGAUUAUUGCAUGUAUACAAAGCCUGAAGACUUUGUAGCUGAUUUUAGAUUGAUCUUUCAAAACUGU,0.749
GUGCUCUGCGUCUCGGCCGCGCAGCCCAACAUCACCACCCUGGCUCCCAACGUGACCGAGGUGCCGACCACGACCACCAAAGUGGUCCCGACGACGCAAAUGCCCACCGUGCUACCAGAA,0.0946
GACCAAAGUUUUUGAUCAUAUGUUUUGAGAUAAUUGUAUGAUCAAGUUGUAUAUUUAAGUCUUAGUGUUUGAAAUUGCAGUUAUAAUUGUUCAUAGGAUUGCUAUUUAAGAUGAUUUGAA,2.22
CCUCCAUUUGUUACGUGAGAGAAUGCGUCUGCUGAUCACUGAAGUGUCCCUUUUAGCUUCUGAUUCAUUGGGUUCUGUUGGGCAUCUUUAAAUCCACCUUAACCUGAGGAAUGUAUGUGG,0.119
ACACAGCUGGUUUCGAAGAGUCUUGCCUACAUCGAACGUGAUGUUUAUCGACCAAAAUUUUUAUCUAAAACAGUGAGAAUUACCUUUGGAUUCAACUGCAGAAAUAAAGAUCAUUAUGGG,0.163
CUCAAUGGCUUGGAACCAGAAAAUAUCCACAUGAUGAUUGGGUCUAUGACAAUCGACUGCUUAGGAAUUCUAAAUGAUCUCUCCGACUGUGAAGAUAAGCUCUUUCCUAUUGGAUAUCAG,0.429
ACAAUCAUGCCUGCUUUUAUCUUUGAACAUAUUAUUAAGCGGAUGGCACCAAGCAUUAUGAAAAGCCUAAUGGACCACACCAUUCCUGAGGUUUAAAAUUCACGGCACCAUGGAAAUGUA,0.161
GGAGCCAUAUAGCACUGUCACCCCUUAUUUGAGGAACUGAUGUUUGAAAGGCUGUUCUUUUCUCUCUUAAUGUCAUUUCUUUAAAAAUACAUGUGCAUACUACACACAGUAUAUAAUGCC,0.362
CAGAAUGUUAACAGUGUAACUAUAUUUGUUCAGUCGAAUCAAGGUGAAGAGGAAACAACAAGAAUUUCAUAUUUUACUUUUAUUGGUACUCCAGUCCAGGCAACAAAUAUGAAUGACUUC,0.159
AUAAAGACUGAGCACUACAAAACAGAUCUUCAUUCUCCAAGAGGACAAGCGUCGGAUAGUAUAAACCCCAUGUCUAGGGUGCUAAGCCCCCUGAGUCCUCAAAUCAGCCCUUGCAGCUCC,0.203
UUUUUUCAGUAAGACUUUCAGGCACUUCUUCCCUUUUGAUUUCUUUUUUUUCCUCUGUUUUUUAGCAUGCAAGUAUGUUGGUACGUUAUGUCCUGGUUUAAAAAGGAUUAAAAUUUUAAA,0.826

# Series 2
# Target: Histone acetyltransferase KAT6A, both winged helices, GST fusion (KAT6A, Homo sapiens, UniProt Q92794, residues 1-181)
# Technique: protein binding microarray
# Molecule type: double-stranded DNA, one strand shown
# Sample: in vitro
# Concentration: not given
# Setting: 8-mer, flanks averaged, mean of 2 arrays, mostly near background
# Baseline: not given
# Direction: higher = stronger binding
# Construct (chain): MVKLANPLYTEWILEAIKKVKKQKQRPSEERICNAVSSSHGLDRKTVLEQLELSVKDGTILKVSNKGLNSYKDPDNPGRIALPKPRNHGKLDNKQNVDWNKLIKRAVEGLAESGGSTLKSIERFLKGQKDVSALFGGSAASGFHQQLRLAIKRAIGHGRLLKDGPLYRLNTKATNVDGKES
Oligonucleotide,E-score
TCATAACA,-0.0751
GGCACATA,0.108
CTCGCCTC,-0.139
ACCGTCCT,0.0782
AACAGTTG,-0.125
CGTTTCTC,0.0151
AAGTGGCT,-0.105
CTCAATTA,-0.0764
TCGATCAA,0.00591
GATTACTA,-0.0309
CAGTGTCA,-0.0325
TCTTAAGA,-0.0897
AAATTGTG,-0.281
CGTGCTAC,0.0103
GAACAGGA,-0.0817
AACAGCAT,-0.00821
AGTGCAGA,-0.106
GGTGACAC,0.027
GTAAAGCA,-0.0088
TCAGAGGA,-0.0694
AACTATGA,-0.0593
AAGTGTCG,0.00626
CTAAATCA,-0.145
ATCAGCGG,0.215
TACTGTCA,-0.083

# Series 3
# Target: Prothrombin, mature alpha-thrombin (F2, Homo sapiens, UniProt P00734)
# Technique: aptamer microarray, sandwich
# Molecule type: DNA with 2'F-ANA
# Sample: in vitro
# Concentration: 200 nM
# Setting: whole 15-mer aptamer, many near background
# With: Cy3 exosite-II aptamer, 400 nM
# Direction: higher = stronger binding
# Oligonucleotide: GGTTGGTGTGGTTGG
Modification,mean fluorescence intensity [a.u.]
2'F-ANA at 1 4 9 10 13 15,49.6
2'F-ANA at 3 4 6 7 8 9 11 14 15,245
2'F-ANA at 1 3 4 5 10 11 12 13 14,42.8
2'F-ANA at 1 6 7 8 9 14 15,77.5
2'F-ANA at 1 3 5 6 7 9 10 12,48.2
2'F-ANA at 7 10 11 13 15,147
2'F-ANA at 3 6 9 10 11 12 13 14,357
2'F-ANA at 1 3 4 5 10 12,61.2
2'F-ANA at 2 9 11 13,350
2'F-ANA at 2 3 6 7 8 10 11 12 13,382
2'F-ANA at 2 9 10 12 14,90.6
2'F-ANA at 1 2 3 4 9 11 12 14,86.5
2'F-ANA at 1 5 11 15,61.5
2'F-ANA at 6 7 8 9 11 12 13 14,191
2'F-ANA at 1 3 6 7 8 11 12 13 14 15,108
2'F-ANA at 4 5 8 9 10 12 13 14 15,50
2'F-ANA at 1 8 9 10 11 13 14 15,49.5
2'F-ANA at 1 3 11 12 14,119
2'F-ANA at 2 7 8 9 12 14 15,224
2'F-ANA at 4 6 10 14,56.4
2'F-ANA at 1 3 4 6 8 9 13 15,138
2'F-ANA at 2 5 7 8 11 12 14,47
2'F-ANA at 1 2 5 6 7 8 10 12 13 15,62.9

# Series 4
# Target: Sal-like protein 4, full length isoform B (SALL4, Homo sapiens, UniProt Q9UJQ4-2, residues 1-616)
# Technique: universal PBM
# Molecule type: double-stranded DNA, one strand shown
# Sample: in vitro
# Concentration: not given
# Setting: 8-mer, flanks averaged, mean of replicates
# Direction: higher = stronger binding
# Construct (chain): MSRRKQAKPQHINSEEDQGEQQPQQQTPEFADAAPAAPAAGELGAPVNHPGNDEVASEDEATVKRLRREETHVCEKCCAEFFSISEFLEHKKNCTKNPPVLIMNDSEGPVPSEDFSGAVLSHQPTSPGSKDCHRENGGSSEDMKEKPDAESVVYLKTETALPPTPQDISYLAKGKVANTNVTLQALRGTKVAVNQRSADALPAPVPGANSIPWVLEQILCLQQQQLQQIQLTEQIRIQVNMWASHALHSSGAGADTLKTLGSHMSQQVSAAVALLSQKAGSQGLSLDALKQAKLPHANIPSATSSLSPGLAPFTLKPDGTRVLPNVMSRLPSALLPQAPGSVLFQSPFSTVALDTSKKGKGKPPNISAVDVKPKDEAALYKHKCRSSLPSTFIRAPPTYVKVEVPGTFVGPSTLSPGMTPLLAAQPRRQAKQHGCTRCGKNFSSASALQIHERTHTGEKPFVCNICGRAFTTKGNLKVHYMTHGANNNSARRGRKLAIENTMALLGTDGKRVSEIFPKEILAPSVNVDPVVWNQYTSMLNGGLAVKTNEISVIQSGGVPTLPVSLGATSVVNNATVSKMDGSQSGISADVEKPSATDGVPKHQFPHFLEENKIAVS
Oligonucleotide,E-score
ATCCGCTC,-0.302
AACTGGCA,0.00284
GAGCAACC,-0.197
CTATTACA,0.215
GTTTCCTA,0.0873
AGAAGGCT,-0.191
ACCCAGTC,-0.156
GCCTGAGA,-0.248
ATGTGACC,0.0222
AAACAAGC,-0.0161
TTACGAAA,0.242
CGATTCGA,-0.0433
CCATGCAG,-0.151
ACTCATAG,0.0877
CGCGGGAC,-0.164
CAAAACCC,0.0207
AGTCGAAG,0.0225
AACTGGGC,-0.298
GAAGCAGC,-0.169
AAGTTGCG,-0.143
AATCTGCA,0.0493
CTACTAAC,0.0909
AGGTCCGC,-0.326
AATCAAGT,0.091
AGTAGTTC,0.0271

# Series 5
# Target: RNA binding protein fox-1 homolog 2, RRM domain, GST-SBP tag (RBFOX2, Homo sapiens, UniProt O43251-10, residues 100-194)
# Technique: RNA Bind-n-Seq
# Molecule type: RNA
# Sample: in vitro
# Concentration: 365 nM
# Setting: natural RNA segment, single round, ends assumed
# Baseline: no-protein control
# Direction: higher = stronger binding
# Shared flanks, not repeated: GGGAGUUCUACAGUCCGACGAUC … UGGAAUUCUCGGGUGCCAA
# Construct (chain): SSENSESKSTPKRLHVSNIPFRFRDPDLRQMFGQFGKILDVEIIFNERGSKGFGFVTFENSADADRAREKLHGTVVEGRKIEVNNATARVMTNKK
Oligonucleotide,RBNS enrichment (R)
CUUCUGGUCCCCUGUGGUGAUGUGCCUGUAAUCUUUUUCUCCACCCAAACCCCUUCCCACGACAAAAACAAGACUGCCUCCCUCUCUUCCGGGAGCUGGUGACAGCCUUG,0.735
UUAUUUCAAGACAAUGCCUUAUAUCACAUUGGAGGAGUUUGAAUACUUAACAGGUUCUUUGUCAACAUGGAGACAUUAACAUGGUAGCUCACUGACUGGGUCUCUUCAGC,0.359
AAAUUAAGAUUUCCUUAACCUUAACCUUAAAAUUGAUAUUAUAUUAAACAUACAUAAUACAAUGUAACUCCACUGUUCUCCUGAAUAUUUUUUGCUCUAAUCUCUCUGCC,0.955
GUUUUAAAAUGAUCAAUCUUUGUAUGAAAGUCAGUUUUCUUUCUUUAGGUAUCAGAAGAUUUUGCCUUAUUCUGAGGUCGGACUAGGGCCAAGCAAGCUUUUUCCUUCAU,0.605
GUCUGACUAUCUUGAGGGAGAAACAAGCAGGUUUCUACUAGUGGUGUCUUCUGUUGUAUUAACUUCUUUCCUUUGUGGUAUCUUGUAUCCUGUUUUAAAAACUAAAUGAA,0.567
CCCAGGGGGCAGCACAGCCGGCCCCCGGCCCACGUUUUCGGUGGAAAAUUAGAGUGAACAAGAACACCCCUGCCGACUCCCAGCCCGGCCAAAAAGACAAAACACAUAGA,0.506
UCUUGUGGGACCCUGGGAUGUUUGGGGACUUUACUAUCUAGCACCCCAGUAGGCCUGUCCUGGCCAGAGAAGACUGGUAGGGGCCGAGUGGGGUUUGAAGGCAGCCGGCC,0.64
GGCCAAGCUGGUCACAAGUGGUCACUUACUCUUGCCAUUCUUCAUGAACCAAACCAACUGUGUGACUGUCUGAUGUGCCACCUCACUCAGAGGGAAGCUCUAACAUUGCC,0.243
UUUUAACUGGUUUUAUUUUAAUUUUUAUUAUAUUUUCAGUUUUUCCAUAAAGGAACCACUUCCAACUUGUACCUAGUCUCCUUGCUUACUGUCCCCCUUUCUCCAGAAAG,0.497
AAGGUUCUCAUUUCUCAGGUGGUGGGACUAGACAGAGGGAGUGGCAAGCUCAGGGAAGGAUCAUUUCUGGUGAUAAUUCCAUUCACUUUGCACUUUGAUGGGCAUUAAAA,0.457
GCCCGUGUGAGAAGUGAAUGCUGGGACUCAGCCUUCAGACAGAGAGGACUGUAGGGAGGGCGGCAGGGGCCUGGAGAUCCUCCUGCAGACCACGCCCGUCCUGCCUGUGG,0.326
CCGCUUACUCUGGAUGCAGAUGGCUGCUGCCGAUCCACUCUGUCUUUCUCGGGCUGCUUUUGCGUCGUUGUCCUAGGUGGCCAGAUUGUCUUGAUAAGAGCAGAUCUGGG,0.525
